Published values pooled from the literature.
Parts stem from different laboratories: compare values within a part only. Positions count from the first letter of the parent shown.

Study 1 — method: RNA Bind-n-Seq; molecule type: RNA; matrix: in vitro; concentration: 365 nM; relative to: no-protein control; reading: higher = stronger binding
Target: RNA binding protein fox-1 homolog 2, RRM domain, GST-SBP tag (RBFOX2, Homo sapiens, UniProt O43251-10, residues 100-194)
Setting: natural RNA segment, single round, ends assumed
All sequences stand within: GGGAGUUCUACAGUCCGACGAUC … UGGAAUUCUCGGGUGCCAA
Target sequence (chain): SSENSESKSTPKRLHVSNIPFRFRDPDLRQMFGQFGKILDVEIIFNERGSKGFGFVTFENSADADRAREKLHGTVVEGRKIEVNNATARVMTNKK
| Strand | RBNS enrichment (R) |
| --- | --- |
| AAAUGACAAAACCCUCAGUUGAGCCUGAGCCCCCGGCGCGGGGGCUGCUACACUACAGGACACCCAGCAUCGGCUUUGACUGCAGACUGUUCACCCACACGAGCCCUGUG | 0.372 |
| AAAAUUUGAGGCAAAUUUUUUUAAAUGACAGAAAAAGAUAAUCAUCUCACUUGCUUGAAACAGGAGCCAGCAUGAUCUCUGGAAGCAUCAACUAUCCCUCGUCGUGAUUG | 3.62 |
| UGGUUUUCUUUGCUUUAGCUCGAGAAAGCGGCAGCAAACAGAAUACAGAAUGAAUGGAGACUGGGUUCCUGAGAAAAGCUUUGAACACACGGGACUACAGAUGGUGCCCU | 0.734 |
| AGAAAAAAUGAGAUUUUACAAGUGAAAUGGAACCUUUUUAUAUAUACAUACAUACAUAUCUAUCUAUCUAUCUAUAUAUAUAUAAAAUAAAGUAAUUUUCCUAAAUAAAA | 1.54 |
| GGUUGUUUGGACCGAUAAGUGUGCUUAAUCCUGAGGCAAAGUAGUGAAUAUGUUUUAUAUGUUAUGAAGAAAAGAAUUGUUGUAAGUUUUUGAUUCUACUCUUAUAUGCU | 1.32 |
| CACUGAGGAGCACUCAGCCAGCAGUUCUCUAUCCUUAUCAGCCACAGAAUGCUUCUCACUGCCCGAACCUCUAUGCUCUCAUCUGUCACCAUGGCCUCCAACUCCUUCUG | 0.688 |
| AAGUCACUGGUGGCUUUAAAUAACCCAGCGUUGUUCCUCCACACGGCUUUGGUACUCUCUACCUCUUACCGAGCACCGCCCUUUUGACCUUGUAUAGCCAGUUUGACCAU | 0.404 |
| UCAUUAGAGAGCAUUAUCAGAGAUGUGGAGUCCAUCAGAAGACCAGCUUGCAGUGUGUAUAGCAUAUAGAUGCCAAUAUUAGAAUUCUUUAAAUUAUAUUUAACAUUUUC | 0.845 |
| AUGGGCCACACACAGCUAGAAGUCCUCUCCCAGCUAGAAGUCCUGUCCCCACUCUCCUGGCCUGACAAGAUGAGCUCUCCUGGGACCUUGCUCUAGGGCACUCUGCCUCU | 0.489 |
| UUAACAUAAAGACCAUUCAUCAGCGAAUAACUACUGAGCAACUCUAGUGUGCCAGCACAGGCCAGACAUACUAGUGAGCCAGGCACAUCUGGCCUUGGGAAACUCAUCCU | 0.237 |
| GGCAGAGAUGCACUAGAAGACCUUCAUCCUCCCCUUCCUCUGCCCCAAGUCACUACAGUUGGUUCUAUUGAAGCCAGUCUUUAAGAAACCUGGGUUAAAGACACCAGCAC | 0.277 |
| UAAUGUUUGAAGUCUCAAAUGCACCGUAUUACGGUAAAUAACAUGGUUUUGAAAACUUUUUUUUAUUUUGUCACAGACCUGUUGUCAUAGUUGAAAUGAUGUUUAUUGUA | 0.781 |

Study 2 — method: protein binding microarray; molecule type: double-stranded DNA, one strand shown; matrix: in vitro; concentration: not given; relative to: not given; reading: higher = stronger binding
Target: Histone acetyltransferase KAT6A, winged helix 1, GST fusion (KAT6A, Homo sapiens, UniProt Q92794, residues 1-85)
Setting: 8-mer, flanks averaged, mean of 2 arrays, mostly near background
Target sequence (chain): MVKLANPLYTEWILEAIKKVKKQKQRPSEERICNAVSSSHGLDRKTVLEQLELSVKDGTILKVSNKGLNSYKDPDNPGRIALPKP
| Strand | E-score |
| --- | --- |
| CAGAATGA | -0.0901 |
| ATGCGCTA | 0.174 |
| CGGCAGTC | 0.223 |
| GAGACTGC | 0.116 |
| CGGTTACA | 0.184 |
| AAGCAGTG | -0.14 |
| ACTTGCTG | -0.144 |
| CCGATGGC | 0.219 |
| CACTATGA | -0.0875 |
| AAACGAGA | -0.0268 |
| GAATACGA | -0.0893 |
| ATGTTGGG | -0.0933 |
| ACCGATAG | 0.0511 |
| ATCACCTA | -0.274 |
| CGGTTCTA | 0.224 |
| CCTTTGGA | -0.185 |
| GTCGTCCA | -0.0298 |
| TAACTGGA | -0.183 |
| CAAGTAAG | -0.249 |
| GACATGGA | -0.185 |
| GCCACAAC | -0.0992 |
| ACCACGTC | -0.102 |

Study 3 — method: protein-binding microarray; molecule type: double-stranded DNA, one strand shown; matrix: in vitro; concentration: 250 nM; setting: 60-bp whole probe; added: salmon DNA 0.4 mg/ml; relative to: random background probes; reading: higher = stronger binding; all sequences stand within: GCCTAGCAC … GTCTTGATTCGCTTGACGCTGCTG
Target: Interferon regulatory factor 7, full length, phosphomimetic (IRF7, Homo sapiens, UniProt Q92985, residues 1-503, S101K/S471D/S472D/S475D/S476D/S477D/S483D/S484D/S487D)
Construct (chain): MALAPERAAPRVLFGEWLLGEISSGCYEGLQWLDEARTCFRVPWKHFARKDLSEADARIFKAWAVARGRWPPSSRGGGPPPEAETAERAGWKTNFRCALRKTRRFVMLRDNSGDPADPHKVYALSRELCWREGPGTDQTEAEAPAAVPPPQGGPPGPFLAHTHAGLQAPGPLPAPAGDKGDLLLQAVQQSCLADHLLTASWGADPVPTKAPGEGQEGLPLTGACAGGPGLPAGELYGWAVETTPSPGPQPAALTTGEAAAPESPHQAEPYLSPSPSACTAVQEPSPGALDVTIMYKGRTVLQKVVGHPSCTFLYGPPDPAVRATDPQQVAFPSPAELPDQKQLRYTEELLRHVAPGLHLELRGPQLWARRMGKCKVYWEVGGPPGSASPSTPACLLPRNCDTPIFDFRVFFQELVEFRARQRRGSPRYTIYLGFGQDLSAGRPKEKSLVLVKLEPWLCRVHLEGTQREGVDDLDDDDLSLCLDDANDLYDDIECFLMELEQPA
| Strand | log fluorescence [z-score] |
| --- | --- |
| TTAGGTTACCTTTCCCTTTAGTGCTAG | 1.44 |
| GACGGACTGGACACTGGGCACGTGCTA | -1.03 |
| GACGGACTGGACACTGGGAACGTGCTA | -0.578 |
| TTAGATATCAGTTTGGATTAGTGCTAG | -0.0906 |
| TAAGGACTGCTACTGCTTTAGTGCTAG | -0.681 |
| TTAGGTATCGGGTTTTGGTTAGTGCTA | 1.72 |
| GACGATATCGGTATCGAGACGTGCTAG | 0.205 |
| CATTTTCTTTAACTCATTCTGTGCTAG | 2.16 |
| GACGATCTCAGTCTCGGGACGTGCTAG | -0.0722 |
| GACGATATCCGGTTTCGAGACGTGCTA | 4.06 |
| GACGATCTCAGTCTCGAGAAGTGCTAG | -0.0608 |
| TTAGGTGCCGGTTTCGGTTAGTGCTAG | 7.18 |
| GACGGTATCGGGTATCGGGATGTGCTA | 0.504 |
| TTAGGTCTCGGTTACGGTTAGTGCTAG | 2.71 |
| GACGGTTTCCATTCCCTGACGTGCTAG | 7.52 |

Study 4 — target: CCND2, cyclin fold, Cln2 fusion (human); method: yeast growth competition, sequencing; matrix: yeast; setting: weak parent motif; relative to: not given; reading: higher = stronger binding
Parent: RBL1 docking peptide (human); GSAKRRLFGEDPP
| Variant | normalised enrichment score |
| --- | --- |
| K4D | 0.0449 |
| G1F | 0.709 |
| D11R | 0.126 |
| S2E | 0.309 |
| E10K | 0.554 |
| K4R | 0.556 |
| P12S | 0.586 |
| A3E | 0.0695 |
| F8H | 0.398 |
| R6G | 0.227 |
| D11I | 0.188 |
| R5S | 0.00187 |
| L7M | 0.123 |
| D11W | 0.45 |
| D11S | 0.422 |
| R6C | 0.15 |
| A3Q | 0.198 |
| P12C | 0.319 |
| L7I | 0.775 |
| R6E | 0.467 |

Excerpt of the above (study 2):
| Strand | E-score |
| --- | --- |
| ATCACCTA | -0.274 |
| ACTTGCTG | -0.144 |
| CACTATGA | -0.0875 |
| CAAGTAAG | -0.249 |
| CGGTTCTA | 0.224 |
